# Assay results from different studies.
# Compare with care: the assays were run in different laboratories. “And” joins repeats or separate records; there may be more than shown.
Structure (SMILES),cell line,assay,conditions,scale,inhibition
CC(=O)O[C@H]1OC[C@@H]2C=C([C@@]3(C)CCCC(C)(C)C3)CC[C@H]12,human T lymphocytes,"IL-2 release, refers to: IL-2","concentration not given, 24 h, together with: concanavalin A",,26%
CN1CCN(C(=O)c2ccc(-c3cc4c(N5CCC[C@H](C(=O)NCc6ccc(OC(F)(F)F)cc6)C5)ncnc4[nH]3)cc2)CC1,NCI-H3122,"cell growth or viability, MTT","1 µg/mL, 72 h",,63%
COc1cc(C(=O)N2CC[C@@H](O)[C@@H](N)C2)cc2nc(-c3cc4cccnc4n3CC3CC3)n(C)c12,human neutrophils,"protein citrullination, inhibitor, flow cytometry, refers to: citrullinated histone H3","1 µM, together with: ionomycin",,60.7% and 36.1% and 45.5% and 54.5%
C=CC(=O)N1CCC2(CCN(Cc3ccccc3)C2)C1 (stereo not shown),"MCF7, 14-3-3σ knockdown vs control",YAP/TAZ-TEAD reporter,"10 µM, 24 h",,decreased
Cc1nc2c(F)cc(-c3nc(Nc4ccc(CNC(=O)CCCCCC(=O)NO)cc4)ncc3F)cc2n1C(C)C,NCI-H460,"cell growth or viability, CCK-8","0.3 µM, 48 h",,89.5%
CC(C)C[C@H](NC(=O)[C@H](CO)NC(=O)[C@H](CO)NC(=O)CNC(=O)[C@@H]1CCCN1C(=O)[C@H](Cc1ccc(O)cc1)NC(=O)[C@H](CC(C)C)NC(=O)[C@H](CO)NC(=O)[C@H](CS)NC(=O)[C@H](CC(C)C)NC(=O)[C@H](CC(C)C)NC(=O)CNC(=O)[C@H](CC(C)C)NC(=O)[C@H](Cc1ccccc1)NC(=O)CNC(=O)[C@@H]1CSSC[C@H](N)C(=O)N[C@@H](Cc2c[nH]cn2)C(=O)N[C@@H](CO)C(=O)N[C@@H](Cc2c[nH]cn2)C(=O)NCC(=O)N[C@@H]([C@@H](C)O)C(=O)N[C@@H](CCCNC(=N)N)C(=O)N[C@@H](C)C(=O)N1)C(=O)O,A-431,"EGFR phosphorylation, flow cytometry, refers to: EGFR phospho-Tyr1173","10 µM, together with: EGF 20 ng/mL",reference: EGF-stimulated control,~30%
CCC(=CCc1c(O)cc2c(c1O)C(=O)CC(c1ccc(O)cc1)O2)CC (stereo not shown),HeLa,"cell growth or viability, MTT","100 µM, 48 h",,97.2%
Cc1nc2c(F)cc(-c3nc(Nc4ccc(CNC(=O)CCCC(=O)NO)cc4)ncc3F)cc2n1C(C)C,NCI-H460,"cell growth or viability, CCK-8","0.3 µM, 48 h",,98.8%
COc1cccc2c1cc1c3c(cc4c(c32)OCO4)[C@@H]2c3c4c5c(cc6c(c5c5cccc(OC)c35)OCO6)CCN4[C@@H]2N1C (racemic),HuCC-A1,"cytotoxicity, MTT","50 µg/mL, 48 h",,< 50%
Cc1cc(NC2CCN(C)CC2)ccc1-c1cc2c(N3CCC[C@H](C(=O)NCc4ccc(OC(F)(F)F)cc4)C3)ncnc2[nH]1,NCI-H3122,"cell growth or viability, MTT","0.2 µg/mL, 72 h",,52.7%

# Some of these lines once more:
Structure (SMILES),cell line,assay,conditions,scale,inhibition
CC(=O)O[C@H]1OC[C@@H]2C=C([C@@]3(C)CCCC(C)(C)C3)CC[C@H]12,human T lymphocytes,"IL-2 release, refers to: IL-2","concentration not given, 24 h, together with: concanavalin A",,26%
